Measurements from different studies.
Numbered parts are unrelated; each lists some results of a single study.
UniProt P37023, sequence (whole entry, looked up): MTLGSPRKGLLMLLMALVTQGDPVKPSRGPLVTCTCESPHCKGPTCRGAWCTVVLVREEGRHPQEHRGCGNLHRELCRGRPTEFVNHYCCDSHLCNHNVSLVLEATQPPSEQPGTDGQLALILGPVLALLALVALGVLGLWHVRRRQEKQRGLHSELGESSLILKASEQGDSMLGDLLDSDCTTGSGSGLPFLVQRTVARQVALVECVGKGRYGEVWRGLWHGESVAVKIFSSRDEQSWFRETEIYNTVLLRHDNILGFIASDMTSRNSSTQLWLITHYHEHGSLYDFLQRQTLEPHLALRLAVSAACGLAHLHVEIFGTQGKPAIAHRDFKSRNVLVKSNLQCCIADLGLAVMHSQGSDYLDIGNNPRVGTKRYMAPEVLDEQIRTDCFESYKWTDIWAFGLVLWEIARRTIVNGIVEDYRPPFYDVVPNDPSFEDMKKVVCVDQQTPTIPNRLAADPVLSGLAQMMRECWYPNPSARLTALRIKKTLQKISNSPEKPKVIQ
UniProt Q96NX5, sequence (whole entry, looked up): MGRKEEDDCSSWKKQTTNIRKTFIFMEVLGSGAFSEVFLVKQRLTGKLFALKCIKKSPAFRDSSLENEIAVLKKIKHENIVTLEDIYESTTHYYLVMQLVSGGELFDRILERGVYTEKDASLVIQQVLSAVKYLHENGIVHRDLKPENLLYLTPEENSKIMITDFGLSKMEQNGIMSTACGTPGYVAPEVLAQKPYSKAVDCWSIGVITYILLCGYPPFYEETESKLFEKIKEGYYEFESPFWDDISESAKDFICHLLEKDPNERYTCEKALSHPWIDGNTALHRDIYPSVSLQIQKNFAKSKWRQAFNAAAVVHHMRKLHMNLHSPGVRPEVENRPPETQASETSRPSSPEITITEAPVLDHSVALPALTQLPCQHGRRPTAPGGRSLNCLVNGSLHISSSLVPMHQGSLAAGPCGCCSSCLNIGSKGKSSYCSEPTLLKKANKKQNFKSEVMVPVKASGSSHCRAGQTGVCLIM
UniProt Q04759, sequence (whole entry, looked up): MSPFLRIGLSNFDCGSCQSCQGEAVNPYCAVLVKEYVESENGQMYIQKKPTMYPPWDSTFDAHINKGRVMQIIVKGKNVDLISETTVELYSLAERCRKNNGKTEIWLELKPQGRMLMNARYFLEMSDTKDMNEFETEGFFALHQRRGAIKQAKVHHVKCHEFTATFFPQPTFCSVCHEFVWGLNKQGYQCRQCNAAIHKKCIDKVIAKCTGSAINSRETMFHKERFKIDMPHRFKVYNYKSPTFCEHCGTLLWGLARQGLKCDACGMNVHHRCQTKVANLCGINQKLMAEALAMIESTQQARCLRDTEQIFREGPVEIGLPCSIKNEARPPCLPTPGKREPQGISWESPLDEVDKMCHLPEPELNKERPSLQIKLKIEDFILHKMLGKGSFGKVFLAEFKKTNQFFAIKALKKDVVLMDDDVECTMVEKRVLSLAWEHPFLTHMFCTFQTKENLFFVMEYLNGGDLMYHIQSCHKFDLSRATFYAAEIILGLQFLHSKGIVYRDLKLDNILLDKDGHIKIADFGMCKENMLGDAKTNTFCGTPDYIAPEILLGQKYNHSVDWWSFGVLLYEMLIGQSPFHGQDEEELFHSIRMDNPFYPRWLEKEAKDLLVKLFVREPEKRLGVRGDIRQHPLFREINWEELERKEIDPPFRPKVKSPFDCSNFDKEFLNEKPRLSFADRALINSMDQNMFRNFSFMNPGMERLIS
UniProt P06213, sequence (whole entry, looked up): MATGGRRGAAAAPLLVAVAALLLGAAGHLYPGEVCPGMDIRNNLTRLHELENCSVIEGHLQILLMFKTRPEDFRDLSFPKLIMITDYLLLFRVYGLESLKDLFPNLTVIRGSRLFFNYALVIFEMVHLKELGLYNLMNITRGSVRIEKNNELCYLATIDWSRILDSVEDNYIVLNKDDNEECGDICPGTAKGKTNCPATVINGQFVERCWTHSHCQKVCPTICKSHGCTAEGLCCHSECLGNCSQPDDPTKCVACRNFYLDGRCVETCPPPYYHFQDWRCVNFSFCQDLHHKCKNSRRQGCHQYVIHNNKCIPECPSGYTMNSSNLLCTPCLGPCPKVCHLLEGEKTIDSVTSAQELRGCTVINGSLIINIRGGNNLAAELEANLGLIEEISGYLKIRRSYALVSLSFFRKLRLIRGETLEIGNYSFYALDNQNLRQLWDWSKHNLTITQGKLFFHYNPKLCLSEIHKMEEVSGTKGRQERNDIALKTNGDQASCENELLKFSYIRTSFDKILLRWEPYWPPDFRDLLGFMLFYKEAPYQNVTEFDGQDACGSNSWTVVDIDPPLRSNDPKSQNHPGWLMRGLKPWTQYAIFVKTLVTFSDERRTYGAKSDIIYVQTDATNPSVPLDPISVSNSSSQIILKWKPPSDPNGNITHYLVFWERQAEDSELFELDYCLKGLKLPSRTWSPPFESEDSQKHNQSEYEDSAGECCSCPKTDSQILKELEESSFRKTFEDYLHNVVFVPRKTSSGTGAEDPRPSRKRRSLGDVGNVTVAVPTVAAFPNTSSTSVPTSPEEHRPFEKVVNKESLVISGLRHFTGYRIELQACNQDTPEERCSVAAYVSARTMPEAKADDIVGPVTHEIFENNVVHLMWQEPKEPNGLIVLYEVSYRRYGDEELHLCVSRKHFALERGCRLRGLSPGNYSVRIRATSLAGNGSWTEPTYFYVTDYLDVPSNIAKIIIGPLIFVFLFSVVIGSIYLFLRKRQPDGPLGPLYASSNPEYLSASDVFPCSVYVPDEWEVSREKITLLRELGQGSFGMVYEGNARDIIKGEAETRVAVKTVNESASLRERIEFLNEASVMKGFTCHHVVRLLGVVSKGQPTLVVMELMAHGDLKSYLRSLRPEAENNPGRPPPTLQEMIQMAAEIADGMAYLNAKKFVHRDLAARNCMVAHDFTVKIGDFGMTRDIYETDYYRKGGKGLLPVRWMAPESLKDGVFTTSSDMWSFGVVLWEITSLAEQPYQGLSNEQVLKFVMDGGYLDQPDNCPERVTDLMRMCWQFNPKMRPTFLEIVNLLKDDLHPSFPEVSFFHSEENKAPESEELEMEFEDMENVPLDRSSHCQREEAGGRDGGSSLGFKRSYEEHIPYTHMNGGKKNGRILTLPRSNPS
UniProt Q9BRS2, sequence (whole entry, looked up): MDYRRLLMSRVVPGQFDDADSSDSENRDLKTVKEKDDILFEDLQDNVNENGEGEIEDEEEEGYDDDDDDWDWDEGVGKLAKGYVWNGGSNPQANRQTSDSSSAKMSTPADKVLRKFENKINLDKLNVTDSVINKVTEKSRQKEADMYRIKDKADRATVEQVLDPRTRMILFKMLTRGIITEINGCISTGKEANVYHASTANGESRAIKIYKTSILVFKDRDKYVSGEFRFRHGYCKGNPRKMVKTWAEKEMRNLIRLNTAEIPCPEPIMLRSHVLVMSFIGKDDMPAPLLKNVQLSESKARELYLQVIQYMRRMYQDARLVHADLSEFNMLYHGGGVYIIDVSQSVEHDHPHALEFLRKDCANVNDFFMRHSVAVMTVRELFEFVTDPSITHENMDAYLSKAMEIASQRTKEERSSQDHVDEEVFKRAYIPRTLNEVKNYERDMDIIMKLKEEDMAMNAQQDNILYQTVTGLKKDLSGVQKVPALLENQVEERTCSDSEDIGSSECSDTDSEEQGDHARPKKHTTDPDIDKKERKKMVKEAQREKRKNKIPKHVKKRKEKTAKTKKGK
UniProt O96017, sequence (whole entry, looked up): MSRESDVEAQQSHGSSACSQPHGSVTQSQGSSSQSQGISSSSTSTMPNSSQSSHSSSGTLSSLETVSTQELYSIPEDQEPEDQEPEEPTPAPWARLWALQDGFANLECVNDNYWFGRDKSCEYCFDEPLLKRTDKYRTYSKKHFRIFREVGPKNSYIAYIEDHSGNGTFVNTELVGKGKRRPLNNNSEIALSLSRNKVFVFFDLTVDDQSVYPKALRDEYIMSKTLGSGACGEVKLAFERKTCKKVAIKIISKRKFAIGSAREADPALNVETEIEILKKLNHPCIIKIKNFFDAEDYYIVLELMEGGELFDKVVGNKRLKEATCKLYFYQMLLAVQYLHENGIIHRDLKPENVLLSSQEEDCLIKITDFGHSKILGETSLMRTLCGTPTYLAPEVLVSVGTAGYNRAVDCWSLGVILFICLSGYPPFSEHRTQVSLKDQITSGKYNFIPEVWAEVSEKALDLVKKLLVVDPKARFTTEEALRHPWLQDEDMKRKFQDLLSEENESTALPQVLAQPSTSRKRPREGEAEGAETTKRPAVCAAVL

Sample 1
Target: PABPC1L2, full length, GST fusion (mouse, UniProt A0ABA7IW68)
Technique: RNAcompete
Molecule type: RNA
Medium: in vitro
Tested at: 20 nM
Notes: 7-mer, probes averaged, single round
Baseline: mean of 7-mers
Direction: higher = stronger binding
Construct (chain): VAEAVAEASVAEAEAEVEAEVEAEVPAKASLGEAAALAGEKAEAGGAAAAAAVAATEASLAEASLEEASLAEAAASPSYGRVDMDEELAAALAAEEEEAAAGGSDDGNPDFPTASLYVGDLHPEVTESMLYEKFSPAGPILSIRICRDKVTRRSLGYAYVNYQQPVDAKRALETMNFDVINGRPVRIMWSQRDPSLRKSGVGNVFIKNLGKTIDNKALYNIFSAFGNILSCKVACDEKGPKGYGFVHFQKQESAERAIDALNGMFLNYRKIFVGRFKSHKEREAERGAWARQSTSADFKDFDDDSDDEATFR
With `UCGUAGG` the 7-mer Z-score was -0.229.
`GGCACCC` gave a 7-mer Z-score of -0.213.
The 7-mer Z-score of `ACGACUG` is reported as -0.00652.
With `ACCGAGA` the 7-mer Z-score was 0.0678.
For `GCUUUGG`, the 7-mer Z-score was -0.322.
`CGGGCUA` gave a 7-mer Z-score of 0.198.
With `CUCGCUG` the 7-mer Z-score was -0.418.
`UCCGGCG` has a 7-mer Z-score of -0.195.

Sample 2
Target: RING finger protein unkempt homolog, zinc fingers 1-6, SBP tag (UNK, Homo sapiens, UniProt Q9C0B0, residues 30-357)
UniProt Q9C0B0, sequence (30-357, looked up): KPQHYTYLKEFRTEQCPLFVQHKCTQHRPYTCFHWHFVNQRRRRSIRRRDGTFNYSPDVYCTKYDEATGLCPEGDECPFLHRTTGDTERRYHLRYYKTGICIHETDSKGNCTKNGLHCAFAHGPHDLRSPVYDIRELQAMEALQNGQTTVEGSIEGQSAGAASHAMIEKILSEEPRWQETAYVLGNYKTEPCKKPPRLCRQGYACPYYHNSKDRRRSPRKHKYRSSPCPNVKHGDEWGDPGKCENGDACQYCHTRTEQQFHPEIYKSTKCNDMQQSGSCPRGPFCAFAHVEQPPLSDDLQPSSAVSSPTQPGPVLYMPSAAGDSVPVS
Technique: RNA Bind-n-Seq
Molecule type: RNA
Medium: in vitro
Tested at: 100 nM
Notes: RNA with constant flanks, vertebrate orthologous sites, ends assumed
Baseline: input RNA pool
Direction: higher = stronger binding
For `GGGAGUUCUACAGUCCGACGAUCGUCAUCUGACUGGAUGAAGACUGUUCCAAGUUAUAACCAAACAAAUAGCUCCAUGGACUUUCGAAAUUAUAUGAUGAGAGAUGAGAAUUUGGAACCACUGCCCAAAAACUGGGAAAUGGCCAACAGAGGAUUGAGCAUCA`, the bound/input enrichment was 0.543 ratio.
`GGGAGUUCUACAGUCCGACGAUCUUCACCACUCCUGGGUGCAUGAUUGAGGGUGAAGCAUCCACCAGCACUUCAAGGGGUCCAUAGUAUUUUUUUUUUUGCUGCCUCAAAGUCCCCAAAGCCUUCGAGCAGAAGUGGCAGUAGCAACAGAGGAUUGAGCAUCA` gave a bound/input enrichment of 1.8 ratio.
The bound/input enrichment of `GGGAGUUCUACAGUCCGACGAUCGCAAAUCCAGUCACUGUGAUAUUUAAAAUAUGCACAGUCCUCAUUCUUUCUCCAUGAUCCUAGUAUUUUUCUAGCUGUAUCUUUGUAUCUCAUACUGUUAUUUAUCAGUUUUGUUCCCCUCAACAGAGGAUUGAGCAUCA` is reported as 0.897 ratio.
The bound/input enrichment of `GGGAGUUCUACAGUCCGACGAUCCAUUAACACACAAAAUGUCUCCAGGGGGGUAUUAGAUUUGAUUUCUUACAUAUAAAACAAACUAGCCAACCAUUUUUAAAGUAGAAGAGGGUCUCUGAUAGUAAAUGAAAUACUUUUUUUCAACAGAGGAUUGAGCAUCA` is reported as 1.58 ratio.
For `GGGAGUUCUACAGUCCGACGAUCGAGGAUUAGGUUCGAUCCUUUACGUGUUAAAAAAGAAAGCGUAAAAACAUUUUAAAAACAUAGAAAAAUUCAGCAAACCAUUUUUAAAGUAGAAGAGGGUUUUAGGUAGAAAAACGUAUUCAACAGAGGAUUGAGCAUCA`, the bound/input enrichment was 1.28 ratio.
For `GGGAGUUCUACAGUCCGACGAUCCAGCUGACUCACUCAUUGGGAGAGCUGCACAUAUAGCUGUUCUUGAUUCAGAAAUAUUUUUAGAGAAAUUCUUUCUGGUUGCUGCCCUCAAAUAUUUCCAGUAGGAUAAAACAUUGUUAACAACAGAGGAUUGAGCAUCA`, the bound/input enrichment was 0.859 ratio.
`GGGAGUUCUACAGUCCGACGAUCGCCAUGAAAAAGCAGCCCUUCUCCCAGCCCCCCUUUCGCUAGGAGAUACAAACGUUACCAUAGAAGAGCAAUUAAACUCAAUAAAUUUAUCUUUUCAGGAUGAUCCAGACUCCAGUACCACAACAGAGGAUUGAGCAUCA` gave a bound/input enrichment of 0.975 ratio.
The bound/input enrichment of `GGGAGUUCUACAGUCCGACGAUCUUUUCUUUCUUUUGAUUUUCUUUAUUUUUUUCUUUCUUUCCUUCCUUCCUUUUUUUUUGGUAGAUGUUGUUACCCACGCCAUUUUAUGUCUCCUUCACUGAAGGGCUAGAGUUUUAACUUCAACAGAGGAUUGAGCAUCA` is reported as 2.49 ratio.

Sample 3
SMILES: CNC(=O)Nc1ccc2c(c1)[C@@]1(CC2)OC(=O)N(CC(=O)N(Cc2ccc(F)cc2)[C@@H](C)C(F)(F)F)C1=O
Technique: competition with immobilised ligand
Tested at: 1 µM
The remaining binding was 100% (CAMK1G (Homo sapiens, UniProt Q96NX5); cell-free assay).
For Insulin receptor (INSR, Homo sapiens, UniProt P06213); cell-free assay: remaining binding read 73%.
WNK1 (Homo sapiens, UniProt Q9H4A3); cell-free assay — remaining binding: 79%.
PRKCQ (Homo sapiens, UniProt Q04759); cell-free assay — remaining binding: 89%.
ACVRL1 (Homo sapiens, UniProt P37023); binding — remaining binding: 78%.
The remaining binding was 100% (RIOK1 (Homo sapiens, UniProt Q9BRS2); cell-free assay).
The remaining binding was 100% (CHEK2 (Homo sapiens, UniProt O96017); cell-free assay).

Sample 4
Target: Aurora kinase C (AURKC, Homo sapiens, UniProt Q9UQB9)
UniProt Q9UQB9, sequence (whole entry, looked up): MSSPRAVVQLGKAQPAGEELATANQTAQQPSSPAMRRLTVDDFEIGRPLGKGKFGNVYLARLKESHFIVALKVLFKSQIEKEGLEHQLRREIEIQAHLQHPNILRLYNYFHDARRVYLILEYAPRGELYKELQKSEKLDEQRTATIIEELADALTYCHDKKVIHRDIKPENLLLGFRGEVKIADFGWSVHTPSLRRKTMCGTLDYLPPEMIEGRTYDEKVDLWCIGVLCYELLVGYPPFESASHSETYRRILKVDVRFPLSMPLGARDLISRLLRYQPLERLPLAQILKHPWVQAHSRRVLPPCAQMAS
Effect on: enzyme activity
Action: inhibitor
Tested at: 0.5 µM
Baseline: control
The remaining activity of `Cc1nc(-c2ccccc2)c(-c2ccncc2)o1` is reported as 95.7%.
For `CN(C)c1ccc(C=C2C(=O)Nc3ccccc32)cc1`, the remaining activity was 91.1%.
With `Cc1ccc(Nc2nccc(N(C)c3ccc4c(C)n(C)nc4c3)n2)cc1S(N)(=O)=O` the remaining activity was 70.9%.
The remaining activity of `Oc1ccc(-c2nc(-c3ccncc3)c(-c3ccc(F)cc3)[nH]2)cc1` is reported as 94.2%.
`OCC(O)CCON=C1C(c2c(O)[nH]c3ccccc23)=Nc2ccccc21` (stereo not drawn) gave a remaining activity of 43.2%.
For `O=S(=O)(c1cccc2cnccc12)N1CCCNCC1`, the remaining activity was 97.4%.
With `O=C(O)c1ccc2c3c1cccc3c(=O)n1c3ccccc3nc21` the remaining activity was 88%.
`C#Cc1cccc(Nc2ncnc3cc(OCCOC)c(OCCOC)cc23)c1` gave a remaining activity of 88.2%.
`COc1cc2ncnc(Nc3ccc(F)c(Cl)c3)c2cc1OCCCN1CCOCC1` gave a remaining activity of 89.7%.
`COc1ccc(CNC(=O)Nc2ncc([N+](=O)[O-])s2)cc1` has a remaining activity of 98.4%.
With `O=C1NC(=O)C(c2cn(CCCn3ccnc3)c3ccccc23)=C1Nc1ccccc1` the remaining activity was 89.8%.
`CO[C@H]1C[C@@H]2CC[C@@H](C)[C@@](O)(O2)C(=O)C(=O)N2CCCC[C@H]2C(=O)O[C@H]([C@H](C)C[C@@H]2CC[C@@H](O)[C@H](OC)C2)CC(=O)[C@H](C)/C=C(\C)[C@@H](O)[C@@H](OC)C(=O)[C@H](C)C[C@H](C)/C=C/C=C/C=C/1C` gave a remaining activity of 95.6%.
The remaining activity of `Nc1ccc2ncnc(NCCc3ccc(Oc4ccccc4)cc3)c2c1` is reported as 96%.
